{"data": "Results from different studies", "note": "Every numbered part comes from another study and shows a few of its results, in no order."}
{"data": "Block 1", "SMILES": "COc1cc(C(=O)N2CCC(N3CCN(C)CC3)CC2)ccc1Nc1ncc2c(n1)N(C)c1ccccc1C(=O)N2C", "technique": "KINOMEscan", "tested at": "10 µM", "relative to": "DMSO control", "direction": "lower = stronger binding"}
{"target": "EPHA8", "binding [%]": 80}
{"target": "ACVR1B", "binding [%]": 100}
{"target": "MAP4K4", "binding [%]": 85}
{"target": "CDK2", "binding [%]": 100}
{"target": "FER", "binding [%]": 51}
{"target": "MEK2", "binding [%]": 99}
{"data": "Block 2", "target": "SRSF protein kinase 3 (SRPK3, Homo sapiens, UniProt Q9UPE1)", "read-out": "enzyme activity", "action": "inhibitor", "tested at": "0.5 µM", "relative to": "control", "sequence of UniProt Q9UPE1 (whole entry, looked up)": "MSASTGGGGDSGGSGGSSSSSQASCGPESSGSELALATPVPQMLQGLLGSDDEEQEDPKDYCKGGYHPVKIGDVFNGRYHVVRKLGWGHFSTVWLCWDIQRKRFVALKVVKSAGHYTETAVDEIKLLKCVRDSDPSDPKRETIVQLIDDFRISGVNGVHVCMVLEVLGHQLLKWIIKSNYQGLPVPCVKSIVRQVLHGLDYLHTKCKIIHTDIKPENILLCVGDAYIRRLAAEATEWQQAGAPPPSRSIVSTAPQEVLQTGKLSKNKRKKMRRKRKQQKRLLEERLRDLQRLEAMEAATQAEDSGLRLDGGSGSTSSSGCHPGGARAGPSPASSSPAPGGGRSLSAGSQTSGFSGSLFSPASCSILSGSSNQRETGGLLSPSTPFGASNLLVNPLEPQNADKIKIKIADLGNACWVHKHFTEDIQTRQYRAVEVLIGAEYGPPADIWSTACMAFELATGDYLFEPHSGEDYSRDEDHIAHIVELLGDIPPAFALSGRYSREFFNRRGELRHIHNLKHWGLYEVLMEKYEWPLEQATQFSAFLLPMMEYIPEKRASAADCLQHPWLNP"}
{"Compound": "COc1cc2ncnc(N3CCN(C(=O)Nc4ccc(Oc5ccccc5)cc4)CC3)c2cc1OC", "remaining activity [%]": 97.3}
{"Compound": "CC(=O)O/N=C1/C(c2c(O)[nH]c3cc(Br)ccc23)=Nc2ccccc21", "remaining activity [%]": 93.9}
{"Compound": "COc1ccc(Cl)cc1NC(=O)Nc1cc(C)nc2ccccc12", "remaining activity [%]": 104}
{"Compound": "C[S+]([O-])c1ccc(-c2nc(-c3ccncc3)c(-c3ccc(F)cc3)[nH]2)cc1 (stereo not drawn)", "remaining activity [%]": 99.4}
{"Compound": "CC(C)c1nn(-c2c(Cl)cccc2Cl)c2nc(Cc3ccc(OCCO)cc3)[nH]c(=O)c12", "remaining activity [%]": 92.9}
{"Compound": "O=C1NC(=O)/C(=C/c2ccc3nccnc3c2)S1", "remaining activity [%]": 91.4}
{"Compound": "COc1ccc(-c2cnc3c(-c4ccsc4)cnn3c2)cc1", "remaining activity [%]": 94.1}
{"Compound": "O=c1cc(N2CCOCC2)oc2c1ccc1ccccc12", "remaining activity [%]": 105}
{"Compound": "CCC(=O)Nc1ccc2ncnc(Nc3cccc(Br)c3)c2c1", "remaining activity [%]": 97}
{"data": "Single results of other studies"}
{"SMILES": "O=C(Nc1ccccc1)Nc1cccc(Oc2ccc3nccn3n2)c1", "target or system": "FLT3 ITD human", "assay": "binding, KINOMEscan competition", "setting": "1000 nM", "measurement": "percent of control", "result": "100%"}
{"SMILES": "Cn1cncc1[C@@](O)(COc1ccc(C#N)cc1-c1ccc(OC(F)(F)F)cc1)c1ccc(C#N)cc1", "target or system": "HEK293T", "assay": "high-content imaging", "setting": "10 µM, 24 h, 1 normal, negative death, unit not given", "scale": "relative to: untreated growth", "measurement": "GR value", "result": -0.0147}
{"SMILES": "CN1CCN(C(=O)c2ccc(NC(=O)Nc3ccc(N(C)c4ccnc(Nc5ccc(CS(C)(=O)=O)cc5)n4)cc3)cc2)CC1", "target or system": "FLT3 ITD human", "assay": "binding, KINOMEscan competition", "setting": "1000 nM", "measurement": "percent of control", "result": "0.3%"}
{"note": "Excerpt of the above (block 2):"}
{"Compound": "COc1ccc(Cl)cc1NC(=O)Nc1cc(C)nc2ccccc12", "remaining activity [%]": 104}
{"Compound": "C[S+]([O-])c1ccc(-c2nc(-c3ccncc3)c(-c3ccc(F)cc3)[nH]2)cc1 (stereo not drawn)", "remaining activity [%]": 99.4}
{"Compound": "CC(C)c1nn(-c2c(Cl)cccc2Cl)c2nc(Cc3ccc(OCCO)cc3)[nH]c(=O)c12", "remaining activity [%]": 92.9}
